{"data": "Assay results gathered from unrelated publications", "Isochorismatase domain-containing protein 1": "Isochorismatase domain-containing protein 1 (Homo sapiens, UniProt Q96CN7)", "PLEKHA4 PH domain": "Pleckstrin homology domain-containing family A member 4, PH domain (PLEKHA4, Homo sapiens, UniProt Q9H4M7)", "note": "Each line is one published result; not all experiments were run side by side. Numbers after ± are the reported error.", "UniProt Q9H4M7, sequence (whole entry, looked up)": "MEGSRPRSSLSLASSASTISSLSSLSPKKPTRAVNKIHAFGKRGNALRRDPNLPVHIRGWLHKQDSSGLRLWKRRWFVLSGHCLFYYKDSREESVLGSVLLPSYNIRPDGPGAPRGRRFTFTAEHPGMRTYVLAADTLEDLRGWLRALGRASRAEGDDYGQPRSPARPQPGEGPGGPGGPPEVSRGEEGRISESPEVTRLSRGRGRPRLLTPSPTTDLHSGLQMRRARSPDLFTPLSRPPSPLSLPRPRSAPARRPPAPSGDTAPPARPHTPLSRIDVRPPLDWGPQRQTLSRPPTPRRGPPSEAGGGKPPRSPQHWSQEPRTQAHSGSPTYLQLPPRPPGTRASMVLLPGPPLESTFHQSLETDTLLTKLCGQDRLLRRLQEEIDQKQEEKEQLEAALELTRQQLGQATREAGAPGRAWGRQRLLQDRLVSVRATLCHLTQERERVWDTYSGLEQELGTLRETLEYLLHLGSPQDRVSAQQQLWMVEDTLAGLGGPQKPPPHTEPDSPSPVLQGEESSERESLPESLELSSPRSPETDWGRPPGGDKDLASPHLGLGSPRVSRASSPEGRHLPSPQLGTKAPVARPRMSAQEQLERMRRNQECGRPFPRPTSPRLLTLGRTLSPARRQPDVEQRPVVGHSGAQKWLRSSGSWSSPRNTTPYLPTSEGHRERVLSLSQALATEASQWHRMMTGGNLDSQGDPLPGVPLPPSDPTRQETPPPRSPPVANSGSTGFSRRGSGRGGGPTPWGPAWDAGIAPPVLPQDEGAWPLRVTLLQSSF", "UniProt Q96CN7, sequence (whole entry, looked up)": "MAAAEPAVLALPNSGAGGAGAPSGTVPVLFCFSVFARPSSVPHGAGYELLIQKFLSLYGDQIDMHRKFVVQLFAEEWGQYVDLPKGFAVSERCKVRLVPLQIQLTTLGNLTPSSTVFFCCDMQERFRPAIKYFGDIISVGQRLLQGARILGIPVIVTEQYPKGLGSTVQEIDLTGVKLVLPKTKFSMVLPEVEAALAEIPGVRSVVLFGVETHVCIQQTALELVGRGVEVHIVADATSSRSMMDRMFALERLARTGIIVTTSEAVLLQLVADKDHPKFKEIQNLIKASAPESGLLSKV", "UniProt Q147X3, sequence (whole entry, looked up)": "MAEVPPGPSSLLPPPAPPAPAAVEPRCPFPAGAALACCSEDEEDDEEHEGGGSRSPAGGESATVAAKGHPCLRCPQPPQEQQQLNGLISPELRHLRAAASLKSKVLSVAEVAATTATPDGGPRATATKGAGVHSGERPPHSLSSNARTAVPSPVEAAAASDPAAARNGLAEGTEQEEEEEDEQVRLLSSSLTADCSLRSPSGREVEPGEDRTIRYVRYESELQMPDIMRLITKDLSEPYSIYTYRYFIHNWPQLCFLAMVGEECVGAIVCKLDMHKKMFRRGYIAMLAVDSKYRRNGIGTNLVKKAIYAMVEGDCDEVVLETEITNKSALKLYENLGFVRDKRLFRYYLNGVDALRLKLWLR", "UniProt P36897, sequence (whole entry, looked up)": "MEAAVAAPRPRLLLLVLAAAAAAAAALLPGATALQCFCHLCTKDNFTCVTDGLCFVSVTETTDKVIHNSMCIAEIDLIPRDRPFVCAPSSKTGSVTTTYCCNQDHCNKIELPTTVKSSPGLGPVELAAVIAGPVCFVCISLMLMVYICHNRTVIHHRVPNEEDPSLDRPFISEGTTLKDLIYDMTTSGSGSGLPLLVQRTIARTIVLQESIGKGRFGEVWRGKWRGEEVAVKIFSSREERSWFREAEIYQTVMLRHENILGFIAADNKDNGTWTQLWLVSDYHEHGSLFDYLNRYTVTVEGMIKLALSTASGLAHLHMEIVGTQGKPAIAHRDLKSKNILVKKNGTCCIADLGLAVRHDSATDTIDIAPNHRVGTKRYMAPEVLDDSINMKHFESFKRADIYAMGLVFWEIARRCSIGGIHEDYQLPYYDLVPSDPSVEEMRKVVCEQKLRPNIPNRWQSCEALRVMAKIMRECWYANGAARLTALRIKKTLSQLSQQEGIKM", "UniProt P34995, sequence (whole entry, unmodified, looked up)": "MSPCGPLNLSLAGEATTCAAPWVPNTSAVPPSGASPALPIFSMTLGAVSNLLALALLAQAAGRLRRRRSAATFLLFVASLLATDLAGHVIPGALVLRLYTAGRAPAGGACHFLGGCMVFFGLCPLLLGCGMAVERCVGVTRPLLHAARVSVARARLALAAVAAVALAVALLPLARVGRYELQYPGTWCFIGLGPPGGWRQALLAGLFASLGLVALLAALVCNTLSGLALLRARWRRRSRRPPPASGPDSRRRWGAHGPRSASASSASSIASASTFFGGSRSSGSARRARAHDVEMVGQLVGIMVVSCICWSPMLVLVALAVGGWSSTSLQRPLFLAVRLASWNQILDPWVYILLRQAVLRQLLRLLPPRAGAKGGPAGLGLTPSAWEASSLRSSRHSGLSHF", "UniProt Q96SW2, sequence (whole entry, looked up)": "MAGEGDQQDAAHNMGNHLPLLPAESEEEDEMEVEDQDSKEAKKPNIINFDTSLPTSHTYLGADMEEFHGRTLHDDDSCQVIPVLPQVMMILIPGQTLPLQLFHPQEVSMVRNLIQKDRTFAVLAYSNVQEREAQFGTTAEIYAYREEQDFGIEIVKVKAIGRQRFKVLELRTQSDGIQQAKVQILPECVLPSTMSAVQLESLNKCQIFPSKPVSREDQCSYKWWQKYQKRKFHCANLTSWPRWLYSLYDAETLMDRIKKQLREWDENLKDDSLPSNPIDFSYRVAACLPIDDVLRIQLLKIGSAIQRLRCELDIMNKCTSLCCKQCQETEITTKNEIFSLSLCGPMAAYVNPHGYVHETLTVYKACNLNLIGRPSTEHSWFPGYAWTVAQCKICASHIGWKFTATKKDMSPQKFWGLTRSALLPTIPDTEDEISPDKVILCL", "UniProt Q9C0K7, sequence (whole entry, looked up)": "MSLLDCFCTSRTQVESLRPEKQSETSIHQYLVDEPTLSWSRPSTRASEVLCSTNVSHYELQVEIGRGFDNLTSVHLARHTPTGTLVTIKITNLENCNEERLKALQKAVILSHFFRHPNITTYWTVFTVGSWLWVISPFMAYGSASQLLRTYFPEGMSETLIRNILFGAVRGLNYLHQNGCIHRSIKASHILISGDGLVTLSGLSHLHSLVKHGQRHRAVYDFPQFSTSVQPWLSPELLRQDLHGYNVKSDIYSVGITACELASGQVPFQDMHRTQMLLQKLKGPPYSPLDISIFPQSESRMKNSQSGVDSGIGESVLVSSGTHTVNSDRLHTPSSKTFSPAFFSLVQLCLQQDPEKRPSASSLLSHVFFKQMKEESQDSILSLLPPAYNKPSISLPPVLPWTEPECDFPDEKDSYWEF", "UniProt Q16566, sequence (whole entry, looked up)": "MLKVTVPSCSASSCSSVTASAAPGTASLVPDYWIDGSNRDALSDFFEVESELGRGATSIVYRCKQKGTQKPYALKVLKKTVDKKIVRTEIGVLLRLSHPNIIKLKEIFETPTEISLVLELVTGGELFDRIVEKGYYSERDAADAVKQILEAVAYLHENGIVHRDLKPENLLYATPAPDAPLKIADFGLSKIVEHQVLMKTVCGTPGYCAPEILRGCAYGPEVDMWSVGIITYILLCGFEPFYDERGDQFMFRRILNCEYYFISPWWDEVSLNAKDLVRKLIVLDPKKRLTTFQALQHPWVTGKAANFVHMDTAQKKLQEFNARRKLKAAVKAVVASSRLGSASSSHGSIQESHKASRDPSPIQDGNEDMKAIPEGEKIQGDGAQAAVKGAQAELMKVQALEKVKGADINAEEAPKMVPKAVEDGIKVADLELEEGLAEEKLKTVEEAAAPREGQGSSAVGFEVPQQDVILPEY", "UniProt P35363, sequence (whole entry, looked up)": "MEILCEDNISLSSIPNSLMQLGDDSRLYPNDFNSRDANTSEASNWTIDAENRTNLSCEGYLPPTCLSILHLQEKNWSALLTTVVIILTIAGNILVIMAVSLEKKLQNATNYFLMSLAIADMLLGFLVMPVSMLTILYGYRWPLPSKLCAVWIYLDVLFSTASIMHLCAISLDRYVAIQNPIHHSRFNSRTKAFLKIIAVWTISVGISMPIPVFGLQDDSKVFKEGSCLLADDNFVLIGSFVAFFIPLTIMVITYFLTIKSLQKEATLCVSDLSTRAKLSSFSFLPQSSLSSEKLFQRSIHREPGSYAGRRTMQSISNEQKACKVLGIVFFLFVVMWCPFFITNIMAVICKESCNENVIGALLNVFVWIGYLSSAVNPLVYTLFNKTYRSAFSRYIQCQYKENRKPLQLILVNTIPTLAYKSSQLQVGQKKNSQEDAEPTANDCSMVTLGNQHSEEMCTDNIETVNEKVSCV", "UniProt Q9UKS7, sequence (whole entry, looked up)": "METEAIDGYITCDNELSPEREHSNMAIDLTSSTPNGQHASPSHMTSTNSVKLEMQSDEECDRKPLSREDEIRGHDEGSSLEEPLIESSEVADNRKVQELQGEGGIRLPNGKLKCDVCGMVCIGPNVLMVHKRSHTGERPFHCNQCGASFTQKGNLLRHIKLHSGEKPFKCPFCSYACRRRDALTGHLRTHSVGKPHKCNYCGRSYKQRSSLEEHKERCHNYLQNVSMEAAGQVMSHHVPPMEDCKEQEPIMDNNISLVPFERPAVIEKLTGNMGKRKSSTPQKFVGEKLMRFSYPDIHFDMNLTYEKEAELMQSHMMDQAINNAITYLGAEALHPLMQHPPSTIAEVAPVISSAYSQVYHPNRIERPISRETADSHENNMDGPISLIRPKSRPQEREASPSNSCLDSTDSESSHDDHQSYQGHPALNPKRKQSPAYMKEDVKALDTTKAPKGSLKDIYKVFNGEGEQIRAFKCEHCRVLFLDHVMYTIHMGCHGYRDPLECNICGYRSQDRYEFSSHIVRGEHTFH"}
{"target": "uncharacterized protein (Canis lupus familiaris, UniProt A0A8I3P1R6)", "assay": "cAMP level, agonist, cAMP luminescence", "test system": "HEK293 cells", "endpoint": "EC50", "value": "> 1500 µM", "SMILES": "Cc1cncc(C)n1"}
{"target": "16-kinase panel", "assay": "radiometric", "setting": "1 µM, ATP at Km", "scale": "below 10% of control", "endpoint": "number of kinases inhibited", "value": 1, "SMILES": "NS(=O)(=O)c1ccc(CNc2nc(Nc3cccc(CN4CCOCC4)c3)ncc2C2CC2)cc1"}
{"target": "Htr2a (Mus musculus, UniProt P35363)", "assay": "antagonist, Gq dissociation BRET", "setting": "mouse receptor", "endpoint": "Kb", "value": "6.55 µM", "SMILES": "N#C[C@@]12C[C@@H]1[C@@H](n1cnc3c(NC4CCCC4)nc(I)nc31)[C@H](O)[C@@H]2O"}
{"target": "Isochorismatase domain-containing protein 1", "assay": "inhibitor, competition pulldown", "test system": "SW620 and MV4-11 lysate", "setting": "1 h", "endpoint": "Kd", "value": "0.152 µM", "SMILES": "O=C(CCCCCCC(=O)Nc1ccccc1)NO"}
{"target": "PLEKHA4 PH domain", "assay": "PLEKHA4 PI(4,5)P2 binding, fluorescence polarization", "setting": "added: BODIPY-PI(4,5)P2 tracer", "endpoint": "Ki", "value": "83 ± 14 µM", "SMILES": "CCOc1ccccc1C(=O)CC(SCc1ccc(Cl)cc1)C(=O)O (centres unmarked)"}
{"target": "CYP3A, rat", "assay": "poziotinib metabolism to M2, inhibitor", "test system": "rat liver microsomes", "setting": "added: poziotinib", "endpoint": "αKi", "value": "18.1 µM", "SMILES": "COc1cc2c(c(OC)c1OC)-c1c(cc3c(c1OC)OCO3)CC(C)C(C)C2 (centres unmarked)"}
{"target": "16-kinase panel", "assay": "radiometric", "setting": "1 µM, ATP at Km", "scale": "below 10% of control", "endpoint": "number of kinases inhibited", "value": 0, "SMILES": "NS(=O)(=O)c1ccc(CNc2ccnc(Nc3cccc(CN4CCOCC4)c3)n2)cc1"}
{"target": "PLEKHA4 PH domain", "assay": "PLEKHA4 PI(4,5)P2 binding, fluorescence polarization", "setting": "added: BODIPY-PI(4,5)P2 tracer", "endpoint": "Ki", "value": "53.6 ± 8 µM", "SMILES": "CCOc1ccc(C(=O)CC(SCc2ccc(Cl)cc2)C(=O)O)cc1OCC (centres unmarked)"}
{"target": "CAMK4 (Homo sapiens, UniProt Q16566)", "endpoint": "IC50", "value": "1.8 µM", "SMILES": "CN1CCN(c2ccc(Nc3ncc4cc(C#N)c(=O)n(C5CCCC5)c4n3)cc2)CC1"}
{"target": "TGFBR1 (Homo sapiens, UniProt P36897)", "assay": "binding, LanthaScreen kinase binding", "endpoint": "IC50", "value": "0.192 ± 0.0203 µM", "SMILES": "Fc1ccc(-c2nc(-c3ccccc3Cl)[nH]c2-c2ccncc2)cc1"}
{"target": "N-alpha-acetyltransferase 30 (NAA30, Homo sapiens, UniProt Q147X3)", "assay": "competitor, competition MS pulldown", "test system": "SW-620 cell lysate", "setting": "added: photo-immobilized beads", "endpoint": "Kd", "value": "5.23 µM", "SMILES": "CC(C)(COP(=O)(O)OP(=O)(O)OC[C@H]1O[C@@H](n2cnc3c(N)ncnc32)[C@H](O)[C@@H]1OP(=O)(O)O)[C@@H](O)C(=O)NCCC(=O)NCCS"}
{"target": "16-kinase panel", "assay": "radiometric", "setting": "1 µM, ATP at Km", "scale": "below 10% of control", "endpoint": "number of kinases inhibited", "value": 1, "SMILES": "Cc1nn(CC(F)(F)F)cc1Nc1ncc(C2CC2)c(NCCCNC(=O)C2CCC2)n1"}
{"target": "Isochorismatase domain-containing protein 1", "assay": "inhibitor, competition pulldown", "test system": "SW620 and MV4-11 lysate", "setting": "1 h", "endpoint": "Kd", "value": "3.73 µM", "SMILES": "CCCCOc1ccc(CC(=O)NO)cc1"}
{"target": "16-kinase panel", "assay": "radiometric", "setting": "1 µM, ATP at Km", "scale": "below 10% of control", "endpoint": "number of kinases inhibited", "value": 16, "SMILES": "O=C(NCCCNc1nc(Nc2cccc(NC(=O)N3CCCC3)c2)ncc1Br)C1CCC1"}
{"target": "CRBN/Zinc finger protein Helios (Homo sapiens, UniProt Q96SW2+Q9UKS7)", "assay": "protein degradation, degrader, immunoblot", "test system": "Jurkat", "setting": "4 h", "endpoint": "DC50", "value": "0.043 µM", "SMILES": "O=C1CCC(N2Cc3cc(C4CCN(Cc5ccccc5)CC4)ccc3C2=O)C(=O)N1 (centres unmarked)"}
{"target": "16-kinase panel", "assay": "radiometric", "setting": "1 µM, ATP at Km", "scale": "below 10% of control", "endpoint": "number of kinases inhibited", "value": 7, "SMILES": "Cc1nn(CC(F)(F)F)cc1Nc1ncc(Br)c(NCCCNC(=O)C2CCC2)n1"}
{"target": "PLEKHA4 PH domain", "assay": "PLEKHA4 PI(4,5)P2 binding, fluorescence polarization", "setting": "added: BODIPY-PI(4,5)P2 tracer", "endpoint": "Ki", "value": "300 ± 160 µM", "SMILES": "COc1ccccc1C(=O)CC(SCc1ccc(Cl)cc1)C(=O)O (centres unmarked)"}
{"target": "STE20-related kinase adapter protein beta (Homo sapiens, UniProt Q9C0K7)", "assay": "ATP-site binding, ActivX KiNativ profiling", "test system": "THP-1 cell lysate", "setting": "Lys1 STLK6 probe site", "endpoint": "IC50", "value": "> 5 µM", "SMILES": "CC[C@@H]1[C@H](F)C(=O)N[C@@H]1COc1nccc2cc(C(N)=O)c(OC)cc12"}
{"target": "16-kinase panel", "assay": "radiometric", "setting": "1 µM, ATP at Km", "scale": "below 10% of control", "endpoint": "number of kinases inhibited", "value": 16, "SMILES": "CN1CCc2cc(Nc3ncc(C4CC4)c(NCCCNC(=O)C4CCC4)n3)ccc2C1"}
{"target": "Isochorismatase domain-containing protein 1", "assay": "inhibitor, competition pulldown", "test system": "SW620 and MV4-11 lysate", "setting": "1 h", "endpoint": "Kd", "value": "> 30.2 µM", "SMILES": "CCCCc1nc2cc(/C=C/C(=O)NO)ccc2n1CCN(CC)CC"}
{"target": "Cone cGMP-gated channel (Morone saxatilis, UniProt Q3I0N1+Q3I0N2)", "assay": "channel current, agonist, suction electrode", "test system": "Morone saxatilis cone outer segments", "setting": "added: 0 µM Ca2+", "endpoint": "EC50", "value": "112 µM", "SMILES": "Nc1nc2c(ncn2[C@@H]2O[C@@H]3COP(=O)(O)O[C@H]3[C@H]2O)c(=O)[nH]1"}
{"target": "P2Y purinoceptor 14 (P2RY14, Homo sapiens, UniProt Q15391, R274A)", "endpoint": "Ki", "value": "9.68 µM", "SMILES": "O=c1ccn([C@@H]2O[C@H](COP(=O)(O)OP(=O)(O)O[C@H]3O[C@H](CO)[C@@H](O)[C@H](O)[C@H]3O)[C@@H](O)[C@H]2O)c(=S)[nH]1"}
{"target": "CYP3A, rat", "assay": "poziotinib metabolism to M1, inhibitor", "test system": "rat liver microsomes", "setting": "added: poziotinib", "endpoint": "αKi", "value": "57 µM", "SMILES": "COc1cc2c(c(OC)c1OC)-c1c(cc(OC)c(OC)c1OC)C[C@H](C)[C@H](C)C2"}
{"target": "PTGER1 (Homo sapiens, UniProt P34995, E294A)", "assay": "IP1 accumulation, agonist", "test system": "AD293", "setting": "EP1 E294A mutant", "endpoint": "EC50", "value": "0.00317 µM", "SMILES": "CCCCC[C@H](O)/C=C/[C@H]1[C@H](O)CC(=O)[C@@H]1C/C=C\\CCCC(=O)O"}
{"target": "16-kinase panel", "assay": "radiometric", "setting": "1 µM, ATP at Km", "scale": "below 10% of control", "endpoint": "number of kinases inhibited", "value": 14, "SMILES": "O=C(NCCCNc1nc(Nc2cccc(NC(=O)N3CCCC3)c2)ncc1I)c1cccs1"}
{"target": "PLEKHA4 PH domain", "assay": "PLEKHA4 PI(4,5)P2 binding, fluorescence polarization", "setting": "added: BODIPY-PI(4,5)P2 tracer", "endpoint": "Ki", "value": "> 1000 µM", "SMILES": "CCOc1ccc(C(=O)CC(SCc2ccc(Cl)cc2)C(=O)OC)cc1 (centres unmarked)"}
{"target": "16-kinase panel", "assay": "radiometric", "setting": "1 µM, ATP at Km", "scale": "below 10% of control", "endpoint": "number of kinases inhibited", "value": 0, "SMILES": "Cc1nn(CC(F)(F)F)cc1Nc1nccc(NCCCNC(=O)C2CCC2)n1"}
{"target": "PLEKHA4 PH domain", "assay": "PLEKHA4 PI(4,5)P2 binding, fluorescence polarization", "setting": "added: BODIPY-PI(4,5)P2 tracer", "endpoint": "Ki", "value": "45.4 ± 3.5 µM", "SMILES": "CCOc1ccc(C(=O)CC(SCc2ccc(Cl)cc2)C(=O)O)cc1 (centres unmarked)"}
{"target": "Isochorismatase domain-containing protein 1", "assay": "inhibitor, competition pulldown", "test system": "SW620 and MV4-11 lysate", "setting": "1 h", "endpoint": "Kd", "value": "3.03 µM", "SMILES": "O=C(CCCCCN1C(=O)c2cccc3cccc(c23)C1=O)NO"}
{"note": "A few entries again:"}
{"target": "PTGER1 (Homo sapiens, UniProt P34995, E294A)", "assay": "IP1 accumulation, agonist", "test system": "AD293", "setting": "EP1 E294A mutant", "endpoint": "EC50", "value": "0.00317 µM", "SMILES": "CCCCC[C@H](O)/C=C/[C@H]1[C@H](O)CC(=O)[C@@H]1C/C=C\\CCCC(=O)O"}
{"target": "16-kinase panel", "assay": "radiometric", "setting": "1 µM, ATP at Km", "scale": "below 10% of control", "endpoint": "number of kinases inhibited", "value": 14, "SMILES": "O=C(NCCCNc1nc(Nc2cccc(NC(=O)N3CCCC3)c2)ncc1I)c1cccs1"}
{"target": "PLEKHA4 PH domain", "assay": "PLEKHA4 PI(4,5)P2 binding, fluorescence polarization", "setting": "added: BODIPY-PI(4,5)P2 tracer", "endpoint": "Ki", "value": "> 1000 µM", "SMILES": "CCOc1ccc(C(=O)CC(SCc2ccc(Cl)cc2)C(=O)OC)cc1 (centres unmarked)"}
{"target": "16-kinase panel", "assay": "radiometric", "setting": "1 µM, ATP at Km", "scale": "below 10% of control", "endpoint": "number of kinases inhibited", "value": 0, "SMILES": "Cc1nn(CC(F)(F)F)cc1Nc1nccc(NCCCNC(=O)C2CCC2)n1"}
